Assay results of several laboratories.
Each line is one published result; not all experiments were run side by side. pKi: −log10 of the molar value.
ABCG2: Broad substrate specificity ATP-binding cassette transporter ABCG2 (ABCG2, Homo sapiens, UniProt Q9UNQ0)
Chain of UniProt Q9UNQ0 (whole entry, looked up): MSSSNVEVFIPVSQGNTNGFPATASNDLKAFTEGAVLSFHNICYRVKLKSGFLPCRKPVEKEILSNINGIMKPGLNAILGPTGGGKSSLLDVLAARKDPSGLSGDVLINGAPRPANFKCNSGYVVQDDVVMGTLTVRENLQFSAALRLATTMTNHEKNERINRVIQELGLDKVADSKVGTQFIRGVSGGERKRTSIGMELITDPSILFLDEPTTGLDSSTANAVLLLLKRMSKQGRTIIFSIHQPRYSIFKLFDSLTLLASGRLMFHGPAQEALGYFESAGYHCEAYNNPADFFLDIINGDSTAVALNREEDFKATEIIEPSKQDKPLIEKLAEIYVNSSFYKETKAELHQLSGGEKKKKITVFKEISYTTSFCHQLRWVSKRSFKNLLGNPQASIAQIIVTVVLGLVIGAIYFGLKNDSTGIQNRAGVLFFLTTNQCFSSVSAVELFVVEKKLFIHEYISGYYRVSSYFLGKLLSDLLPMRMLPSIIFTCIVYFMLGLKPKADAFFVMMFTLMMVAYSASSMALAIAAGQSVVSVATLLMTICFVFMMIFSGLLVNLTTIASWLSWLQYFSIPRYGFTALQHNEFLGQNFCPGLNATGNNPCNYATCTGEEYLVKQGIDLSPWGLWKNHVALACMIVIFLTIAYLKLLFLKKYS
Tumor necrosis factor receptor superfamily member 9/Nectin-4: Tumor necrosis factor receptor superfamily member 9/Nectin-4 (Homo sapiens, UniProt Q07011+Q96NY8)
Chain of UniProt Q07011 (whole entry, looked up): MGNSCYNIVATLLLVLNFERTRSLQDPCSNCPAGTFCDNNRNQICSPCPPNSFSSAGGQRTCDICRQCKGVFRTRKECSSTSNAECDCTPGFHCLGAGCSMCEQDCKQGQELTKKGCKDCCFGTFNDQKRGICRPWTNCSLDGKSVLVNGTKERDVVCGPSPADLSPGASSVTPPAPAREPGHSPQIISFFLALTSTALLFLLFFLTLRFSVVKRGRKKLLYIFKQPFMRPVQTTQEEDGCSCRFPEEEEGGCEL
Chain of UniProt Q96NY8 (whole entry, looked up): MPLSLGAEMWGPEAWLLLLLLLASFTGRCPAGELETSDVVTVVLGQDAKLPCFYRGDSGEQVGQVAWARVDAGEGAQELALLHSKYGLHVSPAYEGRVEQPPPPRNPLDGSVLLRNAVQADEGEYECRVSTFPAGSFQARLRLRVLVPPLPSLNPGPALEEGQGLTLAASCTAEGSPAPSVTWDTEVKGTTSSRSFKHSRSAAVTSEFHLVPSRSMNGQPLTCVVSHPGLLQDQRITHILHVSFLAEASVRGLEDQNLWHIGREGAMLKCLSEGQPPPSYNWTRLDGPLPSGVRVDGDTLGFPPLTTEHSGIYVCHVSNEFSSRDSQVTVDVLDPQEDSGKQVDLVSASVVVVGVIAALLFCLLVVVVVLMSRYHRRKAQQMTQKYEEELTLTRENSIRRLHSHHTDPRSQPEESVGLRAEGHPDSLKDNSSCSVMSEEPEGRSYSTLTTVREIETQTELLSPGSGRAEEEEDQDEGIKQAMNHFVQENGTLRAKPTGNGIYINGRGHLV
Chain of UniProt Q4U2R8 (whole entry, looked up): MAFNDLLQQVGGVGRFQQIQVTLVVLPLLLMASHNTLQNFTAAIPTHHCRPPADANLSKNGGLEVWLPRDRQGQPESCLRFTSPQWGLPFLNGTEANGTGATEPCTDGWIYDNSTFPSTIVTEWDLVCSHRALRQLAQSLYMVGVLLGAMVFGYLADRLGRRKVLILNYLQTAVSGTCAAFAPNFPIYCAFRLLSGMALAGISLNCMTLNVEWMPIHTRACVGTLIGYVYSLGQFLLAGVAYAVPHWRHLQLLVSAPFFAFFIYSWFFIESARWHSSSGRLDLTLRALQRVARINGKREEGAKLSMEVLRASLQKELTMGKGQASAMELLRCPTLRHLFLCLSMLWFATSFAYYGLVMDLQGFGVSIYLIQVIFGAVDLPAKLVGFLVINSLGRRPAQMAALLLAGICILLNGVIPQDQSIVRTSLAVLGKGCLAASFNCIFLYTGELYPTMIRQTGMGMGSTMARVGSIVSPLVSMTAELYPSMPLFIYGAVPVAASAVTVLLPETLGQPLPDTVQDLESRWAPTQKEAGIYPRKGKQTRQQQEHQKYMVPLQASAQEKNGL
Chain of UniProt Q9UKP4 (whole entry, looked up): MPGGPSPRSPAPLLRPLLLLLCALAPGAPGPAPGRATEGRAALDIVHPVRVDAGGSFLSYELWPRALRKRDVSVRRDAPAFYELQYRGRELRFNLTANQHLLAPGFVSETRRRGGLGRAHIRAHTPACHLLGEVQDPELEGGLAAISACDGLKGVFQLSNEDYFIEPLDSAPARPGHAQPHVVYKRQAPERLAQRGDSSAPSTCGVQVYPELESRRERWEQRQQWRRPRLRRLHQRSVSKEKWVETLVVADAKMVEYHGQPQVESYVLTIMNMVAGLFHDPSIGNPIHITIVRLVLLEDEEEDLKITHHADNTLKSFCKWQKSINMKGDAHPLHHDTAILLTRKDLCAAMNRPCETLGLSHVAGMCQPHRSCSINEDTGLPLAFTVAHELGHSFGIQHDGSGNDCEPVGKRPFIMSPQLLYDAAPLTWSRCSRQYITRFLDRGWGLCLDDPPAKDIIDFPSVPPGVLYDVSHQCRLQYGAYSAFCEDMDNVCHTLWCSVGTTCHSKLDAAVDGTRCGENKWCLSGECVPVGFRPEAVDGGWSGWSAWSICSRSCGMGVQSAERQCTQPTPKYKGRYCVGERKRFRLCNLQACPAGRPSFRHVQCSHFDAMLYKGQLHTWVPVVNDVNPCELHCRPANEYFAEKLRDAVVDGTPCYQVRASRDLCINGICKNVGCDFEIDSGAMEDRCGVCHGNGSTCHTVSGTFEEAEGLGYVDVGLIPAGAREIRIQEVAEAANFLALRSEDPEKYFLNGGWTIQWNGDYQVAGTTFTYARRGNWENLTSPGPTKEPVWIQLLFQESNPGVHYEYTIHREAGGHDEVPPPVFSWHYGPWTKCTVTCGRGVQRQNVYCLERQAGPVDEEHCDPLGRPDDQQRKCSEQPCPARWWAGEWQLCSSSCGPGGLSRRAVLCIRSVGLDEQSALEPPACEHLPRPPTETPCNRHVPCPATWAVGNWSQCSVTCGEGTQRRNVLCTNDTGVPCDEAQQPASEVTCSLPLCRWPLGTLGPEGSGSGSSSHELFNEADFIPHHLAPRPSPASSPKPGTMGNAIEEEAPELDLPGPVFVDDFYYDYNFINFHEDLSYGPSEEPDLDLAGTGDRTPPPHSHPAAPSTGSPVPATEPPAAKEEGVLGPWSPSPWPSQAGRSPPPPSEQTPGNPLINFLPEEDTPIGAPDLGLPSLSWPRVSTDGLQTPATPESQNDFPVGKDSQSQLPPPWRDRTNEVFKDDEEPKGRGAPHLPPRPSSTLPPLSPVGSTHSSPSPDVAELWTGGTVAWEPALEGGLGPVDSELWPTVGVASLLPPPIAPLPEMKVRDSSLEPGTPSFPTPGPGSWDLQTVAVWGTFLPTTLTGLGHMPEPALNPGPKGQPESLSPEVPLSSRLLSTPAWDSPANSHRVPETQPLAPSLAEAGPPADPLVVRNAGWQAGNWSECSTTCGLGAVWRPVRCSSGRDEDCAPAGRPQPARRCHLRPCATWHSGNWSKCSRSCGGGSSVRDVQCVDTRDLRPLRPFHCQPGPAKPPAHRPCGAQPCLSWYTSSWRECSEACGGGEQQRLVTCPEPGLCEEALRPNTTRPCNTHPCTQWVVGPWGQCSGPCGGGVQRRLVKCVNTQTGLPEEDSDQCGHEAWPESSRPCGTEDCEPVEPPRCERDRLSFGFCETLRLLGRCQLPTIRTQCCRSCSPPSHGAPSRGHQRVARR
Chain of UniProt Q05421 (whole entry, looked up): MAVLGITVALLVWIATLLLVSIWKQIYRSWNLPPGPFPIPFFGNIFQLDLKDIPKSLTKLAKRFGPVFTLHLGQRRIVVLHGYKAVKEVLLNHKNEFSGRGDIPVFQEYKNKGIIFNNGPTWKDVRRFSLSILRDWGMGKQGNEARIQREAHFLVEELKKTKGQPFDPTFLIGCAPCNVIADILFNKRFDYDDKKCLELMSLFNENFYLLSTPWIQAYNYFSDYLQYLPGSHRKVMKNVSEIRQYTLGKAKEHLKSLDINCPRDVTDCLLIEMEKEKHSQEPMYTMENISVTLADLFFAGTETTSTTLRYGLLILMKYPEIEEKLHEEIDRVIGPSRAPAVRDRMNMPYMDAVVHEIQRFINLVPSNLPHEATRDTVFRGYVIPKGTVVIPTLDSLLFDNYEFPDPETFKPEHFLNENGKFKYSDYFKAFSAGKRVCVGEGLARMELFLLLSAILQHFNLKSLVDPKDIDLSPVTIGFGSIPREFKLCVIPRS
Chain of UniProt P33261 (whole entry, looked up): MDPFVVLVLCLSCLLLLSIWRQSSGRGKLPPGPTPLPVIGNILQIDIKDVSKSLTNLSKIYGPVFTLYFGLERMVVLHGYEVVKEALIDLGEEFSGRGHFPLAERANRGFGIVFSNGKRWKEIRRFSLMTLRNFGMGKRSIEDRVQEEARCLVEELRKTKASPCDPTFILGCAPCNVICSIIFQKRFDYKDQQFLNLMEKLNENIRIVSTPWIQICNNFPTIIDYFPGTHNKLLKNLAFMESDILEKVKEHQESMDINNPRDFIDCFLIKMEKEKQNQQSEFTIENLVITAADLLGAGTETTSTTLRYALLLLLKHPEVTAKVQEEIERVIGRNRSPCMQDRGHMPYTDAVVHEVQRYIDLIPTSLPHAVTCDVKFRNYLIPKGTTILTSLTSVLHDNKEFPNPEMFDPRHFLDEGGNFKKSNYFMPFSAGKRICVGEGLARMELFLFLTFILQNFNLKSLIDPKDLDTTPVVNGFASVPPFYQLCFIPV

The tumour uptake of `CCCC[C@H]1C(=O)N(C)[C@@H](CCCC)C(=O)N[C@@H](CCCCNC(=O)CN2CCN(CC(=O)O)CCN(CC(=O)O)CC2)C(=O)N[C@H](C(=O)NCC(N)=O)CSCC(=O)N[C@@H](Cc2ccc(O)cc2)C(=O)N(C)[C@@H](C)C(=O)N[C@@H](CC(N)=O)C(=O)N2CCC[C@H]2C(=O)N[C@@H](Cc2c[nH]cn2)C(=O)N[C@@H](CCC(=O)O)C(=O)N2C[C@H](O)C[C@H]2C(=O)N[C@@H](Cc2c[nH]c3ccccc23)C(=O)N[C@@H](CO)C(=O)N[C@@H](Cc2cn(CC(=O)O)c3ccccc23)C(=O)N1C` [gallium-68 labelled] is reported as 0.6 %ID/g (CD274 (Homo sapiens, UniProt Q9NZQ7); PET; humanised NOG-EXL mice, U-87 MG xenograft; day D3 after antibody, with: anti-PD-L1 antibody 10 mg/kg).
`C=CC1CO1` (stereo not drawn) has a pKi of 4.23 (Cytochrome P450 2E1 (Cyp2e1, Mus musculus, UniProt Q05421); 4-nitrophenol oxidation, inhibitor; B6C3F1 mouse, liver microsomes; binding to substrate-bound enzyme).
The inhibition of `CCN(CCO)CCCC(C)Nc1ccnc2cc(Cl)ccc12` (stereo not drawn) is reported as 6.3% (ABCG2; transport, inhibitor; 100 µM, 5 (unit not given), pH 7, with: CCK-8).
The enzyme contribution of `CC1(C)C(C=C(Cl)Cl)C1C(=O)OC(C#N)c1ccc(F)c(Oc2ccccc2)c1` (stereo not drawn) is reported as 0.32% (CES2 human cytosolic; 0.1 µM, age 6 months).
`CCCC[C@@H]1NC(=O)[C@H](Cc2ccc(O)cc2)NC(=O)[C@@H]2CCCN2C(=O)[C@H](CC(=O)O)NC(=O)[C@H](C)NC(=O)[C@H](Cc2ccccc2)NC(=O)[C@@H]2CSCCC(=O)N3CN(CN(C3)C(=O)CCSC[C@@H](C(=O)N[C@@H](C)C(N)=O)NC1=O)C(=O)CCSC[C@H](NC(C)=O)C(=O)N[C@@H](CC(C)(C)C)C(=O)N1CCC[C@H]1C(=O)N[C@@H](CCC(=O)O)C(=O)N[C@H](CCCCNC(=O)CCc1cn(CCOCCOCCOCCOCCOCCC(=O)N[C@H]3CSCCC(=O)N4CN5CN(C4)C(=O)CCSC[C@H](NC(=O)[C@@H](CCC(=O)O)NC(=O)[C@H](Cc4cccc6ccccc46)NC(=O)[C@@H]4CCCN4C3=O)C(=O)N[C@@H](CC(C)C)C(=O)N[C@@H](CCCCNC(=N)N)C(=O)N[C@@H](CC(=O)O)C(=O)N[C@@H](Cc3c[nH]c4ccccc34)C(=O)N[C@@H](CO)C(=O)N[C@@H]([C@@H](C)O)C(=O)N3CCC[C@H]3C(=O)N3C[C@H](O)C[C@H]3C(=O)N[C@@H](Cc3c[nH]c4ccccc34)C(=O)N[C@H](C(N)=O)CSCCC5=O)nn1)C(=O)N1CCC[C@H]1C(=O)N[C@@H](Cc1ccc(O)cc1)C(=O)N2` has an Emax of 41 fold (Tumor necrosis factor receptor superfamily member 9/Nectin-4; reporter gene, agonist, luciferase reporter; CD137 Jurkat reporter with HT-1376; 6 h, geometric mean; baseline: wells without compound).
`CC(C)CC(=O)OC[C@H]1O[C@@](C#N)(c2ccc3c(N)ncnn23)[C@H](O)[C@@H]1O`: “Papp B to A” 5.35 nm/s (ABCB1 (Homo sapiens, UniProt P08183); Caco-2; 9 µM, with: zosuquidar 25 µM).
With `CCCC[C@@H]1NC(=O)[C@H](Cc2ccc(O)cc2)NC(=O)[C@@H]2CCCN2C(=O)[C@H](CC(=O)O)NC(=O)[C@H](C)NC(=O)[C@H](Cc2ccccc2)NC(=O)[C@@H]2CSCCC(=O)N3CN(CN(C3)C(=O)CCSC[C@H](NC(C)=O)C(=O)N[C@@H](CC(C)(C)C)C(=O)N3CCC[C@H]3C(=O)N[C@@H](CCC(=O)O)C(=O)N[C@H](CCCCNC(=O)CCc3cn(CCOCCOCCOCCN(CCOCCOCCOCCC(=O)N[C@H]4CSCCC(=O)N5CN6CN(C5)C(=O)CCSC[C@H](NC(=O)[C@@H](CC(=O)O)NC(=O)[C@H](Cc5cccc7ccccc57)NC(=O)[C@@H]5CCCN5C4=O)C(=O)N[C@@H](CCSC)C(=O)N[C@@H](CCCCNC(=N)N)C(=O)N[C@@H](CC(=O)O)C(=O)N[C@@H](Cc4c[nH]c5ccccc45)C(=O)N[C@@H](CO)C(=O)N[C@@H]([C@@H](C)O)C(=O)N4CCC[C@H]4C(=O)N4C[C@H](O)C[C@H]4C(=O)N[C@@H](Cc4c[nH]c5ccccc45)C(=O)N[C@H](C(N)=O)CSCCC6=O)CCOCCOCCOCCn4cc(CCC(=O)NCCCC[C@H]5NC(=O)[C@H](CCC(=O)O)NC(=O)[C@@H]6CCCN6C(=O)[C@H](CC(C)(C)C)NC(=O)[C@@H](NC(C)=O)CSCCC(=O)N6CN7CN(C6)C(=O)CCSC[C@H](NC(=O)[C@H](Cc6ccc(O)cc6)NC(=O)[C@@H]6CCCN6C5=O)C(=O)N[C@@H](Cc5ccccc5)C(=O)N[C@@H](C)C(=O)N[C@@H](CC(=O)O)C(=O)N5CCC[C@H]5C(=O)N[C@@H](Cc5ccc(O)cc5)C(=O)N[C@@H](CCCC)C(=O)NCCSCCC7=O)nn4)nn3)C(=O)N3CCC[C@H]3C(=O)N[C@@H](Cc3ccc(O)cc3)C(=O)N2)C(=O)CCSCCNC1=O` the Emax was 75 fold (Tumor necrosis factor receptor superfamily member 9/Nectin-4; reporter gene, agonist, luciferase reporter; CD137 Jurkat reporter with HT-1376; 6 h, geometric mean; baseline: wells without compound).
With `O=C(Nc1cccnn1)N1CCC(=Cc2cccc(Oc3ccc(C(F)(F)F)cn3)c2)CC1` the inhibition was 64% (CYP2C19 (Homo sapiens, UniProt P33261); enzyme activity, inhibitor; 10 µM, with: 3-cyano-7-ethoxycoumarin substrate).
`Cc1cccc(C)c1OCC(=O)N[C@@H](Cc1ccccc1)[C@@H](O)C[C@H](Cc1ccccc1)NC(=O)[C@H](C(C)C)N1CCCNC1=O` has an inhibition of 79.6% (ABCG2; transport, inhibitor; 100 µM, 5 (unit not given), pH 7, with: CCK-8).
`CC(C)=CC1C(C(=O)OCc2coc(Cc3ccccc3)c2)C1(C)C` (stereo not drawn) — result for “BCRP ATPase activity”: “inhibited” (ABCG2; inhibition, inhibitor; 0.03 to 100 µM, with: sulfasalazine 10 µM).
With `CCOC(=O)C1=C[C@@H](OC(CC)CC)[C@H](NC(C)=O)[C@@H](N)C1` the inhibition was 69.2% (SLCO1B3 (Homo sapiens, UniProt Q9NPD5); transport, inhibitor; transiently transfected cells; 100 µM, 10 (unit not given), with: CCK-8).
With `CCCC[C@@H]1NC(=O)[C@H](Cc2ccc(O)cc2)NC(=O)[C@@H]2CCCN2C(=O)[C@H](CC(=O)O)NC(=O)[C@H](C)NC(=O)[C@H](Cc2ccccc2)NC(=O)[C@@H]2CSCCC(=O)N3CN(CN(C3)C(=O)CCSC[C@@H](C(=O)N[C@@H](C)C(N)=O)NC1=O)C(=O)CCSC[C@H](NC(C)=O)C(=O)N[C@@H](CC(C)(C)C)C(=O)N1CCC[C@H]1C(=O)N[C@@H](CCC(=O)O)C(=O)N[C@H](CCCCNC(=O)CCc1cn(CCOCCOCCOCCN(CCOCCOCCOCCn3cc(CCC(=O)NCCCC[C@H]4NC(=O)[C@H](CCC(=O)O)NC(=O)[C@@H]5CCCN5C(=O)[C@H](CC(C)(C)C)NC(=O)[C@@H](NC(C)=O)CSCCC(=O)N5CN6CN(C5)C(=O)CCSC[C@H](NC(=O)[C@H](Cc5ccc(O)cc5)NC(=O)[C@@H]5CCCN5C4=O)C(=O)N[C@@H](Cc4ccccc4)C(=O)N[C@@H](C)C(=O)N[C@@H](CC(=O)O)C(=O)N4CCC[C@H]4C(=O)N[C@@H](Cc4ccc(O)cc4)C(=O)N[C@@H](CCCC)C(=O)N[C@H](C(=O)N[C@@H](C)C(N)=O)CSCCC6=O)nn3)CCOCCOCCOCC(=O)NCCCNC(=O)Cn3cc(CCC(=O)NCCCNC(=O)COCCOCCOCCN(CCOCCOCCOCCn4cc(CCC(=O)NCCC(=O)N[C@H]5CSCCC(=O)N6CN7CN(C6)C(=O)CCSC[C@H](NC(=O)[C@@H](CC(=O)O)NC(=O)[C@H](Cc6cccc8ccccc68)NC(=O)[C@@H]6CCCN6C5=O)C(=O)N[C@@H](CCSC)C(=O)N[C@@H](CCCCNC(=N)N)C(=O)N[C@@H](CC(=O)O)C(=O)N[C@@H](Cc5c[nH]c6ccccc56)C(=O)N[C@@H](CO)C(=O)N[C@@H]([C@@H](C)O)C(=O)N5CCC[C@H]5C(=O)N5C[C@H](O)C[C@H]5C(=O)N[C@@H](Cc5c[nH]c6ccccc56)C(=O)N[C@H](C(N)=O)CSCCC7=O)nn4)CCOCCOCCOCCn4cc(CCC(=O)NCCC(=O)N[C@H]5CSCCC(=O)N6CN7CN(C6)C(=O)CCSC[C@H](NC(=O)[C@@H](CC(=O)O)NC(=O)[C@H](Cc6cccc8ccccc68)NC(=O)[C@@H]6CCCN6C5=O)C(=O)N[C@@H](CCSC)C(=O)N[C@@H](CCCCNC(=N)N)C(=O)N[C@@H](CC(=O)O)C(=O)N[C@@H](Cc5c[nH]c6ccccc56)C(=O)N[C@@H](CO)C(=O)N[C@@H]([C@@H](C)O)C(=O)N5CCC[C@H]5C(=O)N5C[C@H](O)C[C@H]5C(=O)N[C@@H](Cc5c[nH]c6ccccc56)C(=O)N[C@H](C(N)=O)CSCCC7=O)nn4)nn3)nn1)C(=O)N1CCC[C@H]1C(=O)N[C@@H](Cc1ccc(O)cc1)C(=O)N2` the Emax was 48 fold (Tumor necrosis factor receptor superfamily member 9/Nectin-4; reporter gene, agonist, luciferase reporter; CD137 Jurkat reporter with HT-1376; 6 h, geometric mean; baseline: wells without compound).
`O=C1CCC(N2C(=O)c3ccccc3C2=O)C(=O)N1` (stereo not drawn) gave an inhibition of 4% (SLC47A2 (Homo sapiens, UniProt Q86VL8); transport, inhibitor; transiently transfected cells; 100 µM, 10 (unit not given), with: thiamine).
`CCCC[C@@H]1NC(=O)[C@H](Cc2ccc(O)cc2)NC(=O)[C@@H]2CCCN2C(=O)[C@H](CC(N)=O)NC(=O)[C@H](C)NC(=O)[C@H](Cc2ccccc2)NC(=O)[C@@H]2CSCCC(=O)N3CN(CN(C3)C(=O)CCSC[C@H](NC(C)=O)C(=O)N[C@@H](CC(C)(C)C)C(=O)N3CCC[C@H]3C(=O)N[C@@H](CCC(=O)O)C(=O)N[C@H](CCCCNC(=O)CCc3cn(CCOCCOCCOCCOCCOCCC(=O)N[C@H]4CSCCC(=O)N5CN6CN(C5)C(=O)CCSC[C@H](NC(=O)[C@@H](CC(=O)O)NC(=O)[C@H](Cc5cccc7ccccc57)NC(=O)[C@@H]5CCCN5C4=O)C(=O)N[C@@H](CCSC)C(=O)N[C@@H](CCCCNC(=N)N)C(=O)N[C@@H](CC(=O)O)C(=O)N[C@@H](Cc4c[nH]c5ccccc45)C(=O)N[C@@H](CO)C(=O)N[C@@H]([C@@H](C)O)C(=O)N4CCC[C@H]4C(=O)N4C[C@H](O)C[C@H]4C(=O)N[C@@H](Cc4c[nH]c5ccccc45)C(=O)N[C@H](C(N)=O)CSCCC6=O)nn3)C(=O)N3CCC[C@H]3C(=O)N[C@@H](Cc3ccc(O)cc3)C(=O)N2)C(=O)CCSC[C@@H](C(N)=O)NC1=O` gave an Emax of 5 fold (Tumor necrosis factor receptor superfamily member 9/Nectin-4; reporter gene, agonist, luciferase reporter; CD137 Jurkat reporter with HT-1376; 6 h, geometric mean; baseline: wells without compound).
`COc1ccc2cc1Oc1ccc(cc1)C[C@H]1c3cc(c(OC)cc3CCN1C)Oc1c(OC)c(OC)cc3c1[C@H](C2)N(C)CC3` has an inhibition of 24.8% (SLC22A6 (Homo sapiens, UniProt Q4U2R8); transport, inhibitor; 10 µM, with: PAH).
`Cn1nccc1[C@]1(CNC(=O)c2ccc(F)c(F)c2-c2ccc(C(F)(F)F)cc2)NC(=O)NC1=O`: “lipophilic ligand efficiency” 5.9 (A disintegrin and metalloproteinase with thrombospondin motifs 7 (Homo sapiens, UniProt Q9UKP4); FRET substrate).
For `CC1(C)[C@H](C=C(Cl)Cl)[C@H]1C(=O)OCc1cccc(Oc2ccccc2)c1`, “enzyme contribution to CLint” read 0.08% (human CYP1A2; IVIVE from expressed enzymes; human, liver, in vivo scaled; 0.1 µM, age-specific).
`CC(C)CN(C[C@@H](O)[C@H](Cc1ccccc1)NC(=O)O[C@H]1CO[C@H]2OCC[C@H]21)S(=O)(=O)c1ccc(N)cc1` has an inhibition of 49.3% (ABCG2; transport, inhibitor; 100 µM, 5 (unit not given), pH 7, with: CCK-8).

For quick reference, copied from above:
`COc1ccc2cc1Oc1ccc(cc1)C[C@H]1c3cc(c(OC)cc3CCN1C)Oc1c(OC)c(OC)cc3c1[C@H](C2)N(C)CC3` has an inhibition of 24.8% (SLC22A6 (Homo sapiens, UniProt Q4U2R8); transport, inhibitor; 10 µM, with: PAH).
For `CC1(C)[C@H](C=C(Cl)Cl)[C@H]1C(=O)OCc1cccc(Oc2ccccc2)c1`, “enzyme contribution to CLint” read 0.08% (human CYP1A2; IVIVE from expressed enzymes; human, liver, in vivo scaled; 0.1 µM, age-specific).
